# Results gathered from unrelated publications.
# Every numbered part comes from another study and shows a few of its results, in no order. Substitutions count along the parent as printed.
# Sequence of UniProt Q15139 (whole entry, looked up): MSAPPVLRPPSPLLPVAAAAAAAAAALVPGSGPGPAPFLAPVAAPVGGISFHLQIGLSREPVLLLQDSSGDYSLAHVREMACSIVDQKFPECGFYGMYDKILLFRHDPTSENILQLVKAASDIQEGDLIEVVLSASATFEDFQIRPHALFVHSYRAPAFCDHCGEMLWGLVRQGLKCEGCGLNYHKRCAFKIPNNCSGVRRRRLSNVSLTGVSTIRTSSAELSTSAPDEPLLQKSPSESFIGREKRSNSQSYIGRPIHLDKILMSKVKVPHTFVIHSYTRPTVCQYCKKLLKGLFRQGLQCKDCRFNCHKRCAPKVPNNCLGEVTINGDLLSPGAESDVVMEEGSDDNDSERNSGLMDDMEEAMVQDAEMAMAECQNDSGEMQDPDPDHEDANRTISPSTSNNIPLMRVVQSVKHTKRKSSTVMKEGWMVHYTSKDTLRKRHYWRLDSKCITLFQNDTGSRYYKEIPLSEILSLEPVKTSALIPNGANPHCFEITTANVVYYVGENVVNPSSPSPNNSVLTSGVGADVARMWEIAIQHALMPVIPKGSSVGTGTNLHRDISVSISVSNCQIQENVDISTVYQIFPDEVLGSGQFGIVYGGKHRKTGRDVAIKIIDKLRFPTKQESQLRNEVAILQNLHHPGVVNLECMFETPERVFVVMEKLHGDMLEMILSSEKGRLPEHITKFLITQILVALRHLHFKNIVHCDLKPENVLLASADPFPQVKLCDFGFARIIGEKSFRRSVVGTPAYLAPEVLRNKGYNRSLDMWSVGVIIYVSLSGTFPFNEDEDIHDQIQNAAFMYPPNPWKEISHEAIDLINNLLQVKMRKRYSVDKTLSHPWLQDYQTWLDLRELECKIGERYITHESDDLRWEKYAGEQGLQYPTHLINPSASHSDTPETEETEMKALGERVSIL
# Sequence of UniProt Q9NR20 (whole entry, looked up): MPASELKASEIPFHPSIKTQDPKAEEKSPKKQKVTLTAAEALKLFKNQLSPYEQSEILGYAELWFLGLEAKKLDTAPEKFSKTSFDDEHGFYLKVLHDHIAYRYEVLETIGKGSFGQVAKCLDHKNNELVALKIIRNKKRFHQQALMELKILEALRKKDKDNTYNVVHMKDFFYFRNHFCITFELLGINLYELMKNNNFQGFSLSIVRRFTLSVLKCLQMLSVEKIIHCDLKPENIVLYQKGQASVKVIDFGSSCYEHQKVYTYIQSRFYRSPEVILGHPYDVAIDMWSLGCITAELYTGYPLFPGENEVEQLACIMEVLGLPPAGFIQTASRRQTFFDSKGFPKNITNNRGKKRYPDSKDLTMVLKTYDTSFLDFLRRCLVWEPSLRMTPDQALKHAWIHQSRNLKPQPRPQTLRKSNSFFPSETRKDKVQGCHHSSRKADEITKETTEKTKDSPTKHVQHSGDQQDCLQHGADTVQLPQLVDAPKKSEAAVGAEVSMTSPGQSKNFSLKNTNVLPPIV
# Sequence of UniProt Q14289 (whole entry, looked up): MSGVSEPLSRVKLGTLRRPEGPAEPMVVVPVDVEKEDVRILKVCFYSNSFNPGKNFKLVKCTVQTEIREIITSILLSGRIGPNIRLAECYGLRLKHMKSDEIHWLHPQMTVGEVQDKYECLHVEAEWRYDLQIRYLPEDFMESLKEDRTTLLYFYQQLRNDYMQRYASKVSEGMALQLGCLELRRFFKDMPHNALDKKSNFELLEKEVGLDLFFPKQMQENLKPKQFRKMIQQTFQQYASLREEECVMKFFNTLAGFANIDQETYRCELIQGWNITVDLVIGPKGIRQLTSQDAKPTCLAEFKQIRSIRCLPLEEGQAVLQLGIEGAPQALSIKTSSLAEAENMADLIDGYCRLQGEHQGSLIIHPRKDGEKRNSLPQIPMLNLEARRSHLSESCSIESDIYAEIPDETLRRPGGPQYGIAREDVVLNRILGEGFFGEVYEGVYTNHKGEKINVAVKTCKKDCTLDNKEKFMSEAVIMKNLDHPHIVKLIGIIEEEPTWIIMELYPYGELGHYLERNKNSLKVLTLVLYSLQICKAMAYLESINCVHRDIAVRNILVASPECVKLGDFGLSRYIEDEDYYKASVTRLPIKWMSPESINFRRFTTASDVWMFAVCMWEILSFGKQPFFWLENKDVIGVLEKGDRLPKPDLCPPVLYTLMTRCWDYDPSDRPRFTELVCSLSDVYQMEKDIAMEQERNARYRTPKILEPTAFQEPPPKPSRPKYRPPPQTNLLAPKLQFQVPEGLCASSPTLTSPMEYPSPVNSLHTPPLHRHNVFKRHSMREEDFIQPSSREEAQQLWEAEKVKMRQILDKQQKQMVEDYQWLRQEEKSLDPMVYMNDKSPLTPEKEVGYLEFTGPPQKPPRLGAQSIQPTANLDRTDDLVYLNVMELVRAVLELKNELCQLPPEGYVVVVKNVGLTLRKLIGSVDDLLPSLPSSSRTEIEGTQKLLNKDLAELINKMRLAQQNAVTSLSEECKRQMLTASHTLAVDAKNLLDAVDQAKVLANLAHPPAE

# Set 1
# SMILES: COc1ccc2c(c[n+](C)c3c4cc5c(cc4ccc23)OCO5)c1OC
# Read-out: enzyme activity
# Mode: inhibitor
# Concentration: 0.5 µM
# Relative to: control
target,remaining activity [%]
"PTK2B (Homo sapiens, UniProt Q14289)",92.3
"DYRK4 (Homo sapiens, UniProt Q9NR20)",95.1
"PRKD1 (Homo sapiens, UniProt Q15139)",100

# Set 2
# Target: CCND1, cyclin fold, Cln2 fusion (human)
# Method: yeast growth competition, sequencing
# Medium: yeast
# Notes: weak parent motif
# Relative to: not given
# Direction: higher = stronger binding
# Starting sequence: viral docking peptide; TSVRRALFTGGSD; partner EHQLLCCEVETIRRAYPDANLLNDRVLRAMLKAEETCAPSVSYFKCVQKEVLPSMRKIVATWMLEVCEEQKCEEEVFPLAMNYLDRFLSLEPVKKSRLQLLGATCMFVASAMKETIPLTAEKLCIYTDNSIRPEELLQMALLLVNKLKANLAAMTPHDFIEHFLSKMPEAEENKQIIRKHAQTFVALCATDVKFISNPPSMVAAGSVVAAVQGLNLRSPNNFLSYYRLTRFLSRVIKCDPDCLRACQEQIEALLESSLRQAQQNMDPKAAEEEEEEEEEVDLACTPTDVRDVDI
Change,normalised enrichment score
TSHRRALFTGGSD [V3H],0.117
TSVRRALYTGGSD [F8Y],-0.167
TSVRRALKTGGSD [F8K],-0.128
TSVRRALFTNGSD [G10N],0.547
TSVRRAWFTGGSD [L7W],0.221
TSIRRALFTGGSD [V3I],0.506
TSVRRALFPGGSD [T9P],0.221
TSVRRALFTVGSD [G10V],0.189

# Set 3
# Target: Kappa-type opioid receptor (OPRK1, Homo sapiens, UniProt P41145)
# Sequence of UniProt P41145 (whole entry, looked up): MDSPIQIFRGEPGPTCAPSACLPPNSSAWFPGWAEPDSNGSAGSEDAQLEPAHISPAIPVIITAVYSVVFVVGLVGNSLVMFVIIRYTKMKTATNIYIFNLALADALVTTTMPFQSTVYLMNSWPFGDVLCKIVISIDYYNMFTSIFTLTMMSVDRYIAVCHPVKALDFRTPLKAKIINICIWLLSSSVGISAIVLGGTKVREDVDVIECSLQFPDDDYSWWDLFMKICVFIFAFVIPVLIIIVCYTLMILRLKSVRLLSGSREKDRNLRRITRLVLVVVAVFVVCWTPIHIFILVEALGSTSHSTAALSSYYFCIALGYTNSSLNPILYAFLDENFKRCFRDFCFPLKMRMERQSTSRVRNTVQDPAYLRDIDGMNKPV
# Read-out: ligand displacement
# Concentration: 10 µM
Structure (SMILES),inhibition [%]
O=C(Nc1ccc(Oc2ccc(F)cc2)cc1)N1CCc2ncccc2[C@H]1c1ccc(F)cc1,79.3
COc1ccc2cc(OCC3(C(=O)O)CN(C(=O)c4ccc(F)cc4)C3)ccc2c1,16.4
N#CC1(c2ccccn2)CCN(Cc2cc(C(=O)N3CCCC3)c(=O)n3ccccc23)CC1,46.8
C[C@@H](c1cccc(C#N)c1)n1cc(Cl)cc(C(N)=O)c1=N,1.2
CNC(=N)NCCC[C@H](NC(=O)[C@H](CC(C)C)NC(=O)NNC(=O)[C@H](Cc1ccccc1)NC(=O)[C@H](CO)NC(=O)[C@H](CC(N)=O)NC(=O)[C@@H](Cc1ccncc1)NC(=O)[C@H](N)Cc1ccc(O)cc1)C(=O)N[C@@H](Cc1ccccc1)C(N)=O,-6.31
O=c1nc(-c2ccccn2)sc2ccccc12,1.65
NS(=O)(=O)c1cc(NC(=O)Cc2ccccc2)ccc1Oc1cccc(Cl)c1,20.3
CS(=O)(=O)N1CCCC(NC(=O)[C@H](CCC2CCCCC2)NC(=O)c2ccc(CNC(=O)c3cnc4ccccn34)cc2)C1 (some centres unmarked),20.1
NC(=O)c1ccc2nc(-c3ccc(C4(N)CCC4)cc3)c(-c3ccccc3)n2n1,25.4
O=C(NS(=O)(=O)c1ccc(NCC2CCOCC2)c([N+](=O)[O-])c1)c1ccc(N2CCN(Cc3ccc(C(F)(F)F)cc3-c3ccc(Cl)cc3)CC2)cc1Oc1cnc2[nH]ccc2c1,-0.08
Nc1cnc(N2CCc3cc(S(=O)(=O)Nc4c(F)cc(Cl)cc4F)cc(N4CCCC4=O)c32)nc1,14.9
COc1cc(C(=O)O)ncc1C#Cc1ccccc1NS(=O)(=O)c1cccc2c(N(C)C)ccnc12,11
CC1CCN(c2ccnc(NCc3cn(C)cn3)n2)CC1,36.6

# Set 4
# Target: vanadate, free oxyanion
# Method: microfluidic competitive inhibition
# Medium: in vitro, cell-free expressed
# Concentration: not given
# Notes: derived from inhibition constants, unchanged parent 676 nM
# Direction: lower = stronger binding
# Starting sequence: PafA, mature enzyme, eGFP fusion (Elizabethkingia meningoseptica, UniProt Q9KJX5); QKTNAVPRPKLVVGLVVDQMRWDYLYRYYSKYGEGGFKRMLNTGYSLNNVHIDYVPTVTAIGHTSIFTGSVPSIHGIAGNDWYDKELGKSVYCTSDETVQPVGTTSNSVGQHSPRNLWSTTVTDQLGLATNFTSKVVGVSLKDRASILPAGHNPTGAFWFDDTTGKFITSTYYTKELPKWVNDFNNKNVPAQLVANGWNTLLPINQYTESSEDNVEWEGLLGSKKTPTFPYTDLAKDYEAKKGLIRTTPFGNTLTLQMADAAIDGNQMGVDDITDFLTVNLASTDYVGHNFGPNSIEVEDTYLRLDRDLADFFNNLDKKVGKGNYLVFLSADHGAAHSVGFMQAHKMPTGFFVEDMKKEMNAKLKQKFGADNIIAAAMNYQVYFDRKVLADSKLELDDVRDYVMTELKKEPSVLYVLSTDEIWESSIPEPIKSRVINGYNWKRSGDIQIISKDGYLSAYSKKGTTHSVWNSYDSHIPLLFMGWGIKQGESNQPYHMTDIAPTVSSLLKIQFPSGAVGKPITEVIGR
Change,oxyanion analog dissociation constant [nM]
E354V,608
E212V,720
V287A,1330
N196G,969
T120V,735
T98V,646
V102A,516
T94V,369
